Experimental data from different studies.
Each line is one published result; not all experiments were run side by side. ± marks the error that the study gave.
TDP1: Tyrosyl-DNA phosphodiesterase 1 (TDP1, Homo sapiens, UniProt Q9NUW8)
Sequence of UniProt Q9NUW8 (whole entry, looked up): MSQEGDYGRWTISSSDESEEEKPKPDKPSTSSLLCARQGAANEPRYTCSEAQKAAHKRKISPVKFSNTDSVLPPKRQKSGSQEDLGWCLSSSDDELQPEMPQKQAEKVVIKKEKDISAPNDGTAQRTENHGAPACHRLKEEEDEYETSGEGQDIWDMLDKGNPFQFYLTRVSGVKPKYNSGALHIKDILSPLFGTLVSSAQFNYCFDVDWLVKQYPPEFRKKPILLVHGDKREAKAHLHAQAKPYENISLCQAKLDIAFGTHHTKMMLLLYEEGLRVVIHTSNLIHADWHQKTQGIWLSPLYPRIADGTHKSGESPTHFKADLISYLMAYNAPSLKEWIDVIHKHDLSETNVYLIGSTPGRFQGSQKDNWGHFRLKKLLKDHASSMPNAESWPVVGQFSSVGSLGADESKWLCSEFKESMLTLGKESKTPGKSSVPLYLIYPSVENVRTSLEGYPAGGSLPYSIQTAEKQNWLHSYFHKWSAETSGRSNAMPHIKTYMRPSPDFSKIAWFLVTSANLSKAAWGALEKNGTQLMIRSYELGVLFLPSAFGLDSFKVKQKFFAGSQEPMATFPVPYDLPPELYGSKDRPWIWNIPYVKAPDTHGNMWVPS

Compound	target or system	assay	system	conditions	how to read	endpoint	result
CO[C@@H]1OC[C@@H](O)[C@H](O)[C@H]1O	Helicobacter pylori	microbial growth, broth dilution		1.95 µg/mL		inhibition	0%
CN1CCCNC(=O)c2cccc(c2)C(=O)NCCCN(C)CCCNc2cccc3c2C(=O)c2cccc(c2C3=O)NCCC1	SAS	RNA-Seq, measured: SMAP2 mRNA		1 µM, 6 h	relative to: untreated cells	log2 fold change	-0.706
COCCOCCOCCNC(=O)Cc1cc(CC(=O)N[C@H]2C[C@H]3C(=O)Nc4cc(OCCOCCOCCOC)cc(n4)C(=O)N4CCC[C@H]4C(=O)Nc4cc(OCCOCCOCCOC)cc(n4)C(=O)N4CCC[C@H]4C(=O)Nc4cc(OCCOCCOCCOC)cc(n4)C(=O)N3C2)cc(CC(=O)N[C@H]2C[C@H]3C(=O)Nc4cc(OCCOCCOCCOC)cc(n4)C(=O)N4CCC[C@H]4C(=O)Nc4cc(OCCOCCOCCOC)cc(n4)C(=O)N4CCC[C@H]4C(=O)Nc4cc(OCCOCCOCCOC)cc(n4)C(=O)N3C2)c1		anion binding, ITC	water/acetonitrile 70 vol% (87.1 mol%)	298 K, together with: sodium sulfate		TΔS	3.25 ± 0.0239 kcal/mol
COc1cc(O)ccc1CCC(c1ccc(O)cc1)c1cc2c(c(C)c1O)OC(c1ccc(O)cc1)CC2 (mixture of isomers)			human blood	1 µM, together with: A23187		12-HETE level	6710 ± 1710 pg/mL
COCC1CN(C2CCN(c3cc(OC)c(Nc4ncc(Br)c(Nc5ccc6c(c5P(C)(C)=O)OCCO6)n4)cc3C)CC2)C1		RECIST 1.1	advanced EGFR-mutant NSCLC patients	10 mg once daily		progressive disease	66.7%
Cc1ncsc1-c1ccc(C(C)NC(=O)C2CC(O)CN2C(=O)C(NC(=O)CCCCCCCCCCN2CCCC(Nc3ncc(Cl)c(Nc4ccccc4S(=O)(=O)C(C)C)n3)C2)C(C)(C)C)cc1 (stereo not drawn)	22Rv1	RNA-seq, measured: ZNF813 mRNA		concentration not given	relative to: DMSO	log2 fold change	-1.3
COC1CN([C@H]2CC[C@H]([C@@]3(C)Oc4c(Cl)cc(C(=O)NCc5c(SC)cc(C)[nH]c5=O)c(C)c4O3)CC2)C1		RNA-seq, measured: HIC1 mouse homolog	mouse, HT-1376 xenograft, whole blood	dose not given	relative to: vehicle	log2 fold change	1.38
C=C(NC(=O)c1csc(-c2nc3c(cc2O)-c2nc(cs2)C(=O)NC(C(C)O)C(=O)NC(=C(C)OC)c2nc(cs2)C(=O)NC2c4nc(cs4)C(=O)NC(COC(=O)c4c5c6c(cccc6n4O)COC(=O)C(OC4CC(C)(O)C(N(C)C)C(C)O4)C2OC5)c2nc-3cs2)n1)C(N)=O (stereo not drawn)	Streptococcus pneumoniae		-25, immunocompromised mice, lung	32 mg/kg/day thrice daily, 24 h post-dose		lung bacterial load	3.57 log10 CFU/lung
Nc1ncc(-c2cc(-c3cnn(CC(F)(F)F)c3)ncc2F)nc1C(=O)NC1CNCC(F)C1 (stereo not drawn)	TSSK3	KINOMEscan		1 µM	relative to: DMSO control	remaining binding	84%
CC(C)(C)NCC(SS(=O)(=O)O)c1ccccc1 (stereo not drawn)	Schistosoma mansoni		mice	600 mg/kg single dose, 1248 h, dosed day 7, perfused 52	relative to: vehicle	female worm burden reduction	38%
COc1ccc(C(=O)CCc2cc(C(CCc3ccc(O)cc3OC)c3ccc(O)cc3)c(O)cc2OC)cc1 (racemic)			human blood	30 µM, together with: A23187		15-HETE level	290 ± 104 pg/mL
COc1cc(Br)ccc1C=NOCc1ccc(-c2nc3cc(-c4ccccc4)ccn3c2Nc2ccc(C(=O)O)cc2)cc1	TDP1	enzyme activity, inhibitor		100 µM, unpurified compound		inhibition	40.7%
CC=C(C)C(=O)OC1CC2C(C=C(C)C3C(OC(C)=O)CC(=O)C13C)OC(=O)C2C (stereo not drawn)	Helicobacter pylori	microbial growth, broth dilution		125 µg/mL		inhibition	0%
c1ccc(-c2n[nH]cc2-c2ccnc3ccccc23)nc1	IKS1 (Candida albicans)	kinase binding, MIB/MS competition	Candida albicans lysate	10 µM	relative to: DMSO	log2 fold change	-0.24
Cn1ncc2cc(-c3cncc(Cl)c3N3CCC4(CCNC4=O)CC3)ccc21	LS174T	gene expression, microarray, measured: NCOA5 mRNA		concentration not given, 4 h	relative to: untreated cells	log2 fold change	-1.11
CNS(=O)(=O)Nc1nccc(Cc2c(C)c3ccc(Oc4ncccc4F)cc3oc2=O)c1F	RKN	cell viability		7 days		IC50	177 nM
Cn1c(N)c(C=NOCc2ccc(-c3nc4cc(-c5ccccc5)ccn4c3Nc3ccc(C(=O)O)cc3)cc2)c(=O)n(C)c1=O	TDP1	enzyme activity, inhibitor		100 µM, unpurified compound		inhibition	84%
C=CC(=O)Nc1cccc(Cn2ncc3cnc(Nc4cnn(CCOC)c4)nc32)c1	GRK3 human	binding, KINOMEscan		100 nM	lower = stronger binding	percent of control	91%
C/C=C(/C)C(=O)O[C@@H]1C=C(C)CC[C@]2(O)[C@@H](C(C)C)CC(=O)[C@]12C	Helicobacter pylori	microbial growth, broth dilution		0.24 µg/mL		inhibition	0%
CCN(CC)CC(=O)Nc1cccc(-n2cc(-c3ccc4ccc(-c5cn(-c6cccc(NC(=O)CN(CC)CC)c6)nn5)cc4c3)nn2)c1	RCC4	PCR angiogenesis array, measured: COL4A3		5 x IC50, 4 h, normoxia	relative to: untreated	fold regulation	-1.13
C=CC(=O)N1[C@@H](c2ccc3c(c2)OCO3)c2[nH]c3ccccc3c2C[C@H]1C(=O)N1CCN(C)CC1	human cyclin E1 N112C-3xFLAG:CDK2	co-IP with TMT proteomics, measured: PPIB		concentration not given	relative to: wild type DMSO	relative co-enrichment	136%

Repeated from above:
Compound	target or system	assay	system	conditions	how to read	endpoint	result
C/C=C(/C)C(=O)O[C@@H]1C=C(C)CC[C@]2(O)[C@@H](C(C)C)CC(=O)[C@]12C	Helicobacter pylori	microbial growth, broth dilution		0.24 µg/mL		inhibition	0%
CCN(CC)CC(=O)Nc1cccc(-n2cc(-c3ccc4ccc(-c5cn(-c6cccc(NC(=O)CN(CC)CC)c6)nn5)cc4c3)nn2)c1	RCC4	PCR angiogenesis array, measured: COL4A3		5 x IC50, 4 h, normoxia	relative to: untreated	fold regulation	-1.13
